{"data": "Measured values gathered from unrelated publications", "note": "Each numbered part is a random draw from the data of one study; scales do not carry over between parts."}
{"data": "Sample 1", "target": "Centromere-binding protein 1, full length, His-tagged (CBF1, Saccharomyces cerevisiae, UniProt P17106, residues 1-351)", "method": "competition protein-binding microarray", "molecule type": "double-stranded DNA, one strand shown", "medium": "in vitro", "concentration": "2 µM", "setting": "whole 60-bp probe, lowest competitor level", "together with": "Pho4 competitor, 0.05 µM", "direction": "higher = stronger binding", "UniProt P17106, sequence (whole entry, looked up)": "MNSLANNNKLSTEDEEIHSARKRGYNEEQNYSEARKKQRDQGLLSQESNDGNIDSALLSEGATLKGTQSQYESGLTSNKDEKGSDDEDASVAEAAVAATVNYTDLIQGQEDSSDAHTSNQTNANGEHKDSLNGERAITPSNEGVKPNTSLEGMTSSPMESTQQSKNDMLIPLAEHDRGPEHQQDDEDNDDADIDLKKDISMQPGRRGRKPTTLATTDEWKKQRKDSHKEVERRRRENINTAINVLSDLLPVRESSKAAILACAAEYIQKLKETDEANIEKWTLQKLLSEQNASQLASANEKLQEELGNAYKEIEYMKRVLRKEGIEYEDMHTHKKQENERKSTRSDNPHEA"}
{"Sequence": "AATCTCCACTTTACCAATGTGACAGTCTAGACAAGCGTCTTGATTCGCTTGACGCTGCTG", "fluorescence intensity": "88.1 a.u."}
{"Sequence": "TGCGCAACAACTTTTCACGTGGATTTATGTCTAGAAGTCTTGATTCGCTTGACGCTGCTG", "fluorescence intensity": "739 a.u."}
{"Sequence": "TGGGCCTGAAAACTACACGTGGTGAGAGCCACAGTAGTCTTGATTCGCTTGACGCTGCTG", "fluorescence intensity": "677 a.u."}
{"Sequence": "CTTTCCCGATCTTGCGGGGTGGGTGTAGCACATTTGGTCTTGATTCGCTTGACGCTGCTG", "fluorescence intensity": "72 a.u."}
{"Sequence": "CTTCTGTAAATTTTTCACGTGAAATGACGCGCCCCGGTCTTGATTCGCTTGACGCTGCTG", "fluorescence intensity": "736 a.u."}
{"Sequence": "GGCTCGCGCTAGAATCGTGTGCAGCAGCTCCACATCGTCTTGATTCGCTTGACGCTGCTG", "fluorescence intensity": "71.3 a.u."}
{"data": "Sample 2", "target": "Interferon regulatory factor 3, full length, phosphomimetic (IRF3, Homo sapiens, UniProt Q14653, residues 1-427, S386D/S396D/S398D/S402D/T404D/S405D)", "method": "protein-binding microarray", "molecule type": "double-stranded DNA, one strand shown", "medium": "in vitro", "concentration": "2540 nM top", "setting": "60-bp whole probe", "together with": "salmon DNA 0.4 mg/ml", "baseline": "random background probes", "direction": "higher = stronger binding", "constant ends, left off below": "GCCTAGCAC … GTGCTAGGTCTTGATTCGCTTGACGCTGCTG", "Construct (chain)": "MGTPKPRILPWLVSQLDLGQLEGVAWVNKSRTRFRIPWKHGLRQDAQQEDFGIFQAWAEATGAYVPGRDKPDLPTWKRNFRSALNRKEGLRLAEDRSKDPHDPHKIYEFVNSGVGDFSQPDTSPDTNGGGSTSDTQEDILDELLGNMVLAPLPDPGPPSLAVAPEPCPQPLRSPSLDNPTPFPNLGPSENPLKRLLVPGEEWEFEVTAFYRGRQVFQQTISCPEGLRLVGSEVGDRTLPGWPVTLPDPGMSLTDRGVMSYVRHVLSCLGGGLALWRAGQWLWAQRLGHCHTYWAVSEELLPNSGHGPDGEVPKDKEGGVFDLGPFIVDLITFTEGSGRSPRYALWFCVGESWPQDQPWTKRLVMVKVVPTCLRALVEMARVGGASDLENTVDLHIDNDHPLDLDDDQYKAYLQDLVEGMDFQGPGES"}
{"Sequence": "TTAGGTTTCCTTTTCCTTCA", "fitted relative affinity": "11.8 z-score"}
{"Sequence": "TTAGATCTCAGTATCGATCA", "fitted relative affinity": "0.561 z-score"}
{"Sequence": "GTAGATTTCAGTTCCGATTA", "fitted relative affinity": "3.94 z-score"}
{"Sequence": "TCAGTTTTCTAAACCATACT", "fitted relative affinity": "2.64 z-score"}
{"Sequence": "GACGGGTTCCTTTTCCTGAC", "fitted relative affinity": "5.29 z-score"}
{"Sequence": "GGGTTTTTTAGGCAGACAGC", "fitted relative affinity": "-0.0883 z-score"}
{"data": "Sample 3", "target": "Microphthalmia-associated transcription factor, full length (MITF, Homo sapiens, UniProt O75030-10, residues 1-413)", "method": "protein-binding microarray", "molecule type": "hairpin DNA", "medium": "in vitro", "concentration": "not given", "setting": "whole hairpin DNA, median over replicate spots", "baseline": "not given", "direction": "higher = stronger binding"}
{"Sequence": "CACTTAGCCGGTGATTTTGGTCCTCCAAAATCACCGGCTAAGTGACACTC", "median fluorescence [a.u.]": 5450}
{"Sequence": "GAGGCCTTGCACGTGCTGCCTCCTGGCAGCACGTGCAAGGCCTCACACTC", "median fluorescence [a.u.]": 23000}
{"Sequence": "GAGGCCTAGCACGTGGTGCCTCCTGGCACCACGTGCTAGGCCTCACACTC (5mC at 29)", "median fluorescence [a.u.]": 26500}
{"Sequence": "CACTTATCACGTGATTTTGGTCCTCCAAAATCACGTGATAAGTGACACTC", "median fluorescence [a.u.]": 29600}
{"Sequence": "GAGGCCTAGCACGTGCTGCCTCCTGGCAGCACGTGCTAGGCCTCACACTC (5mC at 16)", "median fluorescence [a.u.]": 21700}
{"Sequence": "CACTTAGCACCGGATTTTGGTCCTCCAAAATCCGGTGCTAAGTGACACTC (5mC at 11)", "median fluorescence [a.u.]": 4570}
{"data": "Mixed results"}
{"Substance": "PhoQ, residues 284 288 289 292 302 303 SLANKL", "target": "PhoP, residues 12 14 15 18 19 AYFRS (Escherichia coli, UniProt P23836)", "assay": "Sort-seq, item: YFP reporter", "system": "E. coli", "setting": "PhoQ-PhoP variant library, together with: 10 µM Mg2+", "how to read": "baseline: high Mg2+ state, higher = stronger signaling", "quantity": "fold induction", "value": 11}
{"note": "Repeated from above (sample 2):"}
{"Sequence": "TTAGATCTCAGTATCGATCA", "fitted relative affinity": "0.561 z-score"}
{"Sequence": "GTAGATTTCAGTTCCGATTA", "fitted relative affinity": "3.94 z-score"}
